Experimental data gathered from unrelated publications.
Every numbered part comes from another study and shows a few of its results, in no order.
Sequence of UniProt O00141 (whole entry, looked up): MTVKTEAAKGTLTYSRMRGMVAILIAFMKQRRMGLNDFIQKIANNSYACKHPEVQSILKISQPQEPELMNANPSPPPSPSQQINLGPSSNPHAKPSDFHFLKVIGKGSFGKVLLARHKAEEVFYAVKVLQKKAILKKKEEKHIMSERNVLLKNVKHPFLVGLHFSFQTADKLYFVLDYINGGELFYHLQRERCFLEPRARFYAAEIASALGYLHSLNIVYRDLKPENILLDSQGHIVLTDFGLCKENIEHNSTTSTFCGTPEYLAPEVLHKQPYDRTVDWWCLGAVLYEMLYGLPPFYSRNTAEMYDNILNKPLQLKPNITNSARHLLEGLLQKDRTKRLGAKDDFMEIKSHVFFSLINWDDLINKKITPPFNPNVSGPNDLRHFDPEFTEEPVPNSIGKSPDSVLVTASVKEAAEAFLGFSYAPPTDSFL
Sequence of UniProt P15056 (whole entry, unmodified, looked up): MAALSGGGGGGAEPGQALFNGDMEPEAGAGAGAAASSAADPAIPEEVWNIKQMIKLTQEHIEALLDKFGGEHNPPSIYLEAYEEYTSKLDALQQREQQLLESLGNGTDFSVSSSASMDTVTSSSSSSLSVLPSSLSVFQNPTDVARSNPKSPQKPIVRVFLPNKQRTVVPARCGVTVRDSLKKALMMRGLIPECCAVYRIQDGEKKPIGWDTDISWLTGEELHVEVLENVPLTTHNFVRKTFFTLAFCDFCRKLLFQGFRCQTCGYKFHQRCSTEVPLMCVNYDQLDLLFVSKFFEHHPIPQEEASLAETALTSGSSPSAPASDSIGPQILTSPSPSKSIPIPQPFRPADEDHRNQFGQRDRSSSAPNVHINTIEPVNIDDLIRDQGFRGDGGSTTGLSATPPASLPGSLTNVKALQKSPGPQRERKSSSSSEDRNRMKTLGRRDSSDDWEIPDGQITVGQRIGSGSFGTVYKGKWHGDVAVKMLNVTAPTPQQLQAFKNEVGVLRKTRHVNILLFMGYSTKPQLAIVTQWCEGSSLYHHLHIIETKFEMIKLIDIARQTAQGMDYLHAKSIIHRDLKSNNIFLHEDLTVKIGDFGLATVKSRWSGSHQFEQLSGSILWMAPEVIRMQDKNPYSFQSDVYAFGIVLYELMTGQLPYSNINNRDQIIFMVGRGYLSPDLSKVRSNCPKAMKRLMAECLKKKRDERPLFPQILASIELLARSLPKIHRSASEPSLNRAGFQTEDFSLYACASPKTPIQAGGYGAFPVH
Sequence of UniProt P42336 (whole entry, unmodified, looked up): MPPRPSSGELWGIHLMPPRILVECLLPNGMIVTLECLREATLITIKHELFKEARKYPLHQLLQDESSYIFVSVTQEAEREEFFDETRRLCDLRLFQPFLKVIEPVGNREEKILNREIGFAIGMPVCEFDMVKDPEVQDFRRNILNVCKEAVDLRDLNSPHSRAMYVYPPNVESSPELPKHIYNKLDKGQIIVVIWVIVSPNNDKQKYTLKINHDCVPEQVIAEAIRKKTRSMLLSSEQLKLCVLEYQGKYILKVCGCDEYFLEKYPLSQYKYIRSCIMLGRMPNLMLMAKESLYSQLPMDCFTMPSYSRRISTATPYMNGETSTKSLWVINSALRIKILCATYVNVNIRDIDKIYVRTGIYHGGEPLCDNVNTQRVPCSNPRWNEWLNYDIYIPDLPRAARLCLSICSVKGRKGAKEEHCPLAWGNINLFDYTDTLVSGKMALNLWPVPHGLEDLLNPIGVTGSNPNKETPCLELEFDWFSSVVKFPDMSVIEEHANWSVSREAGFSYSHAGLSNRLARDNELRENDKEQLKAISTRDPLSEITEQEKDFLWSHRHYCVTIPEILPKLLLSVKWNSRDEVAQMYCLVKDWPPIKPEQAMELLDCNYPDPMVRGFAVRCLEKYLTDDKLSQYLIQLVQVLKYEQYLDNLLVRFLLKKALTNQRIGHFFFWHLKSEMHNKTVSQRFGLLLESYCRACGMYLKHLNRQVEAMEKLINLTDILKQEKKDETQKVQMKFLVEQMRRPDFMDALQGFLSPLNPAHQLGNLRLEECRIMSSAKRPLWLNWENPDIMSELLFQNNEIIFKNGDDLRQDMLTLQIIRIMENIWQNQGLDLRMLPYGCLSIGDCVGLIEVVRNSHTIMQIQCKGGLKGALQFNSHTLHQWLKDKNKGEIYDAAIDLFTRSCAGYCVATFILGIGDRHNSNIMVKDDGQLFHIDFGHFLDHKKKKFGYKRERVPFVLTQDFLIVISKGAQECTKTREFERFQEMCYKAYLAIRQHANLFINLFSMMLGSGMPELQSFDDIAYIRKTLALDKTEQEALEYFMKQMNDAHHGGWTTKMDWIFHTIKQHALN
Sequence of UniProt P49840 (whole entry, looked up): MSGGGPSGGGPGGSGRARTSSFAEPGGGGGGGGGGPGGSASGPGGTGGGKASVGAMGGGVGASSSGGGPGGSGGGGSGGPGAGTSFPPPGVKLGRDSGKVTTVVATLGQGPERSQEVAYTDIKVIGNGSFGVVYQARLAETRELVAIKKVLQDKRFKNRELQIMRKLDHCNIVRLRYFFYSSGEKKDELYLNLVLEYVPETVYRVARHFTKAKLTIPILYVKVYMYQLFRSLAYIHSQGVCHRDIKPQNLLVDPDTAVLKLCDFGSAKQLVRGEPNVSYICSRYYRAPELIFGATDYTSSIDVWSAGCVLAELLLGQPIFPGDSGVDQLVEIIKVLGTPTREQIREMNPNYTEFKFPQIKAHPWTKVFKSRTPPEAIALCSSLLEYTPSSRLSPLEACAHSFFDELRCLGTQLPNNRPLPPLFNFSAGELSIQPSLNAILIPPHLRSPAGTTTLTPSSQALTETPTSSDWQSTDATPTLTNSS
Sequence of UniProt P25098 (whole entry, looked up): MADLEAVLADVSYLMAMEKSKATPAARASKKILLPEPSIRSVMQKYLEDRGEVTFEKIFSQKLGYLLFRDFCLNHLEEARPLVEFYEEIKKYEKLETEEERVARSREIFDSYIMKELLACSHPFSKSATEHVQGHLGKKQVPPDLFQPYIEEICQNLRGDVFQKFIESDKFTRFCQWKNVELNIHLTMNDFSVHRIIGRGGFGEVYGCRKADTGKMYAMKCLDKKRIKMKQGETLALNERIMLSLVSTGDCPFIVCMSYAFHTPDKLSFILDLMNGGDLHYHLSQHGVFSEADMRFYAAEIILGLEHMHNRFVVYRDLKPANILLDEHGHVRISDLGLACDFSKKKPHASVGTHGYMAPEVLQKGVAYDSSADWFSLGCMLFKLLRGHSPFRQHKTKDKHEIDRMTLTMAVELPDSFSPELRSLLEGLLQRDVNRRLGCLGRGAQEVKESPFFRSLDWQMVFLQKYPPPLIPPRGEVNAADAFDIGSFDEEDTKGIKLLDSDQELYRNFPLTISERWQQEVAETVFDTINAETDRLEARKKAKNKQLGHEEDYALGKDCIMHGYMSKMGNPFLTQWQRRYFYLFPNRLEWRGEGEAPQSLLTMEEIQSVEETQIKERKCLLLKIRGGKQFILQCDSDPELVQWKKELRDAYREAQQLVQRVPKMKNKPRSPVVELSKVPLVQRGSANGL
Sequence of UniProt O00444 (whole entry, looked up): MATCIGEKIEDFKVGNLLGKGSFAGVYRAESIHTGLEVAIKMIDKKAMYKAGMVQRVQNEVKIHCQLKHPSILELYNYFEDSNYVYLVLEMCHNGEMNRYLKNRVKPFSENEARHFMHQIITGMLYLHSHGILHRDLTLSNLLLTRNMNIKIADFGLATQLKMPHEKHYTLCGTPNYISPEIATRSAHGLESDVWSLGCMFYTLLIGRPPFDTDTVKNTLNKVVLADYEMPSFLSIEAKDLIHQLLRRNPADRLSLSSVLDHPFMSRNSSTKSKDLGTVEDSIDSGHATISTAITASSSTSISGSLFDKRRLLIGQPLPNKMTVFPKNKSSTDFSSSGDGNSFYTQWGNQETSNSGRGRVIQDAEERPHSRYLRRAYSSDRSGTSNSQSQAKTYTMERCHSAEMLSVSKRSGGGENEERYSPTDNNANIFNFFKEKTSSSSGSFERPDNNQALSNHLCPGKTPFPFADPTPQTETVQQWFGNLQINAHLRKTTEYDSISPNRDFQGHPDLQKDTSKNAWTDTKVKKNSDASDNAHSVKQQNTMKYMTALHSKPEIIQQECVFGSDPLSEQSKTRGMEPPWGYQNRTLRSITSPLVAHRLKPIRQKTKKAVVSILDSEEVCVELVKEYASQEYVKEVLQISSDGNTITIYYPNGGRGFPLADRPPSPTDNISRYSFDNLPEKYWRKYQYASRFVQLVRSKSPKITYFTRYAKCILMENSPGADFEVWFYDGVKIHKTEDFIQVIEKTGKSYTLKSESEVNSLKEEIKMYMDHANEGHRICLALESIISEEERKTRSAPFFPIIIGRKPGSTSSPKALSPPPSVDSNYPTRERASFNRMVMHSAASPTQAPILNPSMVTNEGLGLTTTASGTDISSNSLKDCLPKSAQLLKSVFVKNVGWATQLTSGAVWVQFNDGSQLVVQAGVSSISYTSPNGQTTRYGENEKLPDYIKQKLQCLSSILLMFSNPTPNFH

Sample 1
Target: Calcium/calmodulin-dependent protein kinase type II subunit alpha (CAMK2A, Homo sapiens, UniProt Q9UQM7)
Sequence of UniProt Q9UQM7 (whole entry, looked up): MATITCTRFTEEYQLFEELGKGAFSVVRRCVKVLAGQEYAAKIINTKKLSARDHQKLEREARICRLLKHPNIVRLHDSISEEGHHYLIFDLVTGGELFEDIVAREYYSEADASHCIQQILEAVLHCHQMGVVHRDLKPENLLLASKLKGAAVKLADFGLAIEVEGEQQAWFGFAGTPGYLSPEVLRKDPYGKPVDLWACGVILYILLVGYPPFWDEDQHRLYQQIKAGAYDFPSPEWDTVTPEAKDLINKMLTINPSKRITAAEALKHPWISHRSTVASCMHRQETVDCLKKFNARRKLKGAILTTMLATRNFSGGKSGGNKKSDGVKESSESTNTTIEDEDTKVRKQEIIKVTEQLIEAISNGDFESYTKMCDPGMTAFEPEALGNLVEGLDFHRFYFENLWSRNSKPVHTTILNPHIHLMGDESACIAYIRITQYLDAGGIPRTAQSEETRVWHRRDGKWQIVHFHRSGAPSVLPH
Read-out: enzyme activity
Mode: inhibitor
Concentration: 10 µM
SMILES | inhibition
CO[C@@]1(NC(=O)CSCC#N)C(=O)N2C(C(=O)O)=C(CSc3nnnn3C)CS[C@@H]21 | -10%
CN(C)[C@@H]1C(O)=C(C(N)=O)C(=O)[C@@]2(O)C(O)=C3C(=O)c4c(O)ccc(Cl)c4[C@@](C)(O)[C@H]3C[C@@H]12 | 25%
O=c1cc(-c2ccc(O)cc2)oc2c([C@@H]3O[C@H](CO)[C@@H](O)[C@H](O)[C@H]3O)c(O)c([C@@H]3O[C@H](CO)[C@@H](O)[C@H](O)[C@H]3O)c(O)c12 | -19%
C[C@H]1[C@H](NC(=O)/C(=N\OC(C)(C)C(=O)O)c2csc(N)n2)C(=O)N1S(=O)(=O)O | -6%
C[C@@]12C[C@@]3(O)O[C@@H](O1)[C@]1(COC(=O)c4ccccc4)[C@@H]3C[C@]12O[C@@H]1O[C@H](COC(=O)c2cc(O)c(O)c(O)c2)[C@@H](O)[C@H](O)[C@H]1O | -5%
COc1cc2c(=O)c(-c3ccc(O)cc3)coc2cc1O[C@@H]1O[C@H](COC(C)=O)[C@@H](O)[C@H](O)[C@H]1O | 9%
O=C(O)[C@H]1C[C@@H](O)CN1 | -6%
C[C@H]1[C@H]2[C@H](O[C@@H]3O[C@H](CO)[C@@H](O)[C@H](O)[C@H]3O)OC=C(C(=O)O)[C@H]2C[C@@H]1O | 27%
CC(=O)OC/C1=C/C[C@H]2[C@@H](/C=C(\C)C(=O)[C@@]3(OC(C)=O)C[C@H](C)[C@H](OC(=O)c4ccccc4)[C@@H]3[C@H]1OC(C)=O)C2(C)C | -119%
CCCCCCCCCCC[C@@H](C[C@@H]1OC(=O)[C@H]1CCCCCC)OC(=O)[C@H](CC(C)C)NC=O | -3%
CN(C)c1cc(NC(=O)CNC(C)(C)C)c(O)c2c1C[C@H]1C[C@H]3[C@H](N(C)C)C(O)=C(C(N)=O)C(=O)[C@@]3(O)C(O)=C1C2=O | -9%
CCCN1C[C@H](NS(=O)(=O)N(CC)CC)C[C@H]2Cc3c(O)cccc3C[C@@H]21 | -8%
O=C(c1ccccc1)C(O)c1ccccc1 (stereo not shown) | -1%
CC(C)c1ccc2c(c1)CC[C@H]1[C@](C)(C(=O)O)CCC[C@]21C | 1%

Sample 2
SMILES: O=C(Nc1cnn(-c2csc(C(=O)NC3COC3)c2)c1)Nc1c(F)cccc1Cl
Concentration: 5 µM
target | read-out | mode | method | baseline | remaining activity [%]
PLK4 (Homo sapiens, UniProt O00444) | enzyme activity |  |  | untreated control | 83.8
STK16 (Homo sapiens, UniProt O75716) | enzyme activity |  |  | untreated control | 100
CAMK1G (Homo sapiens, UniProt Q96NX5) | enzyme activity |  |  | untreated control | 91.7
Cyclin-dependent kinase 5, with p25 (CDK5, Homo sapiens, UniProt Q00535) | enzyme activity |  |  | untreated control | 87.8
TYK2 (Homo sapiens, UniProt P29597) | enzyme activity |  |  | untreated control | 88.7
OXSR1 (Homo sapiens, UniProt O95747) | enzyme activity |  |  | untreated control | 91.5
cGMP-dependent protein kinase 1, isoform beta (PRKG1, Homo sapiens, UniProt Q13976) | kinase activity |  | kinase panel profiling |  | 98.3
GSK3A (Homo sapiens, UniProt P49840) | enzyme activity |  |  | untreated control | 93.5
MAPK15 (Homo sapiens, UniProt Q8TD08) | enzyme activity |  |  | untreated control | 105
Cyclin-dependent kinase 1, with cyclin E (CDK1, Homo sapiens, UniProt P06493) | enzyme activity |  |  | untreated control | 95
PRKX (Homo sapiens, UniProt P51817) | enzyme activity |  |  | untreated control | 88.1
PKN3 (Homo sapiens, UniProt Q6P5Z2) | enzyme activity | inhibitor |  |  | 74.3
CSNK2A2 (Homo sapiens, UniProt P19784) | enzyme activity |  |  | untreated control | 96

Sample 3
SMILES: O=C(Nc1cccnn1)N1CC(C/C=C/c2cncc(Oc3ccc(C(F)(F)F)cn3)n2)C1
Method: competition with immobilised ligand
Concentration: 1 µM
target | read-out | remaining binding [%]
FLT3 (Homo sapiens, UniProt P36888, R834Q) | cell-free assay | 66
PIK3CA (Homo sapiens, UniProt P42336, H1047L) | cell-free assay | 100
MAP4K1 (Homo sapiens, UniProt Q92918) | cell-free assay | 98
SGK1 (Homo sapiens, UniProt O00141) | cell-free assay | 85
MAPK6 (Homo sapiens, UniProt Q16659) | cell-free assay | 100
PRKACA (Homo sapiens, UniProt P17612) | cell-free assay | 93
MAP3K5 (Homo sapiens, UniProt Q99683) | cell-free assay | 98
BMPR1A (Homo sapiens, UniProt P36894) | binding | 100
BRAF (Homo sapiens, UniProt P15056) | cell-free assay | 100
BRAF (Homo sapiens, UniProt P15056, V600E) | cell-free assay | 85
SYK (Homo sapiens, UniProt P43405) | cell-free assay | 100
LRRK2 (Homo sapiens, UniProt Q5S007, G2019S) | cell-free assay | 100
CDK9 (Homo sapiens, UniProt P50750) | cell-free assay | 100
RIPK2 (Homo sapiens, UniProt O43353) | cell-free assay | 93
BUB1 (Homo sapiens, UniProt O43683) | cell-free assay | 1.4
Tyrosine-protein kinase ABL1, non-phosphorylated (ABL1, Homo sapiens, UniProt P00519, F317I) | cell-free assay | 53
PIK3CA (Homo sapiens, UniProt P42336, E545A) | cell-free assay | 75
MERTK (Homo sapiens, UniProt Q12866) | cell-free assay | 100
STK24 (Homo sapiens, UniProt Q9Y6E0) | cell-free assay | 98
EPHA2 (Homo sapiens, UniProt P29317) | cell-free assay | 100

Sample 4
Structure (SMILES): O=C(c1cc2cc(O)ccc2[nH]1)c1cc2cc(O)ccc2[nH]1
Read-out: enzyme activity
Mode: inhibitor
Concentration: 0.5 µM
Baseline: control
target | remaining activity [%]
RPS6KB1 (Homo sapiens, UniProt P23443) | 85
Aurora kinase C (AURKC, Homo sapiens, UniProt Q9UQB9) | 83.2
MYLK (Homo sapiens, UniProt Q15746) | 91.4
BMX (Homo sapiens, UniProt P51813) | 80.6
GRK6 (Homo sapiens, UniProt P43250) | 102
GRK2 (Homo sapiens, UniProt P25098) | 98.2
SGK1 (Homo sapiens, UniProt O00141) | 74.2
FGFR4 (Homo sapiens, UniProt P22455) | 92.8
PRKCE (Homo sapiens, UniProt Q02156) | 119
CSK (Homo sapiens, UniProt P41240) | 106
GSK3A (Homo sapiens, UniProt P49840) | 75.7
PRKCG (Homo sapiens, UniProt P05129) | 85.1
PAK2 (Homo sapiens, UniProt Q13177) | 97
EPHA7 (Homo sapiens, UniProt Q15375) | 101
CSF1R (Homo sapiens, UniProt P07333) | 97.7
RPS6KA1 (Homo sapiens, UniProt Q15418) | 30.1
SRPK3 (Homo sapiens, UniProt Q9UPE1) | 99.4
EPHB2 (Homo sapiens, UniProt P29323) | 76.7
PIM2 (Homo sapiens, UniProt Q9P1W9) | 108
NUAK1 (Homo sapiens, UniProt O60285) | 69.2

Repeated from above (sample 2):
target | read-out | mode | method | baseline | remaining activity [%]
PLK4 (Homo sapiens, UniProt O00444) | enzyme activity |  |  | untreated control | 83.8
STK16 (Homo sapiens, UniProt O75716) | enzyme activity |  |  | untreated control | 100
CAMK1G (Homo sapiens, UniProt Q96NX5) | enzyme activity |  |  | untreated control | 91.7
Cyclin-dependent kinase 5, with p25 (CDK5, Homo sapiens, UniProt Q00535) | enzyme activity |  |  | untreated control | 87.8
TYK2 (Homo sapiens, UniProt P29597) | enzyme activity |  |  | untreated control | 88.7
OXSR1 (Homo sapiens, UniProt O95747) | enzyme activity |  |  | untreated control | 91.5
cGMP-dependent protein kinase 1, isoform beta (PRKG1, Homo sapiens, UniProt Q13976) | kinase activity |  | kinase panel profiling |  | 98.3
GSK3A (Homo sapiens, UniProt P49840) | enzyme activity |  |  | untreated control | 93.5
MAPK15 (Homo sapiens, UniProt Q8TD08) | enzyme activity |  |  | untreated control | 105
Cyclin-dependent kinase 1, with cyclin E (CDK1, Homo sapiens, UniProt P06493) | enzyme activity |  |  | untreated control | 95
PRKX (Homo sapiens, UniProt P51817) | enzyme activity |  |  | untreated control | 88.1
